Published values of several laboratories.
Lines come from different studies, so protocols differ. ± gives the spread as reported.

| Molecule | tested on | assay | test system | conditions | scale | measurement | value |
| --- | --- | --- | --- | --- | --- | --- | --- |
| CC[C@H](C)[C@H](NC(=O)[C@H](CC(C)C)NC(=O)[C@H](Cc1c[nH]c2ccccc12)NC(=O)[C@H](CCC(N)=O)NC(=O)[C@@H](NC(=O)[C@H](Cc1ccccc1)NC(=O)[C@H](C)NC(=O)[C@H](CCCCNC(=O)COCCOCCNC(=O)COCCOCCNC(=O)CC[C@H](NC(=O)CCCCCCCCCCCCCCCCCCC(=O)O)C(=O)O)NC(=O)[C@H](CCC(N)=O)NC(=O)[C@H](C)NC(=O)[C@@H](NC(=O)[C@H](CCCCN)NC(=O)[C@H](CC(=O)O)NC(=O)[C@H](CC(C)C)NC(=O)C(C)(C)NC(=O)[C@@H](NC(=O)[C@H](CO)NC(=O)[C@H](Cc1ccc(O)cc1)NC(=O)[C@H](CC(=O)O)NC(=O)[C@H](CO)NC(=O)[C@@H](NC(=O)[C@H](Cc1ccccc1)NC(=O)[C@@H](NC(=O)CNC(=O)[C@H](CCC(=O)O)NC(=O)C(C)(C)NC(=O)[C@@H](N)Cc1ccc(O)cc1)[C@@H](C)O)[C@@H](C)O)[C@@H](C)CC)[C@@H](C)CC)C(C)C)C(=O)N[C@@H](C)C(=O)NCC(=O)NCC(=O)N1CCC[C@H]1C(=O)N[C@@H](CO)C(=O)N[C@@H](CO)C(=O)NCC(=O)N[C@@H](C)C(=O)N1CCC[C@H]1C(=O)N1CCC[C@H]1C(=O)N1CCC[C@H]1C(=O)N[C@@H](CO)C(N)=O |  |  | healthy subjects, single ascending dose | 8.0 mg, baseline |  | serum amylase | 63.7 ± 19.2 U/L |
| FELDERIDKV |  | AIM | peptide, CD8+ T cells from PBMC, human donors |  | reference: positive over tested donors | frequency of responding donors | 33% |
| Nc1ncnc2c([C@@H]3N[C@H](CO)[C@@H](O)[C@H]3O)c[nH]c12 | Japanese encephalitis virus | viral replication, inhibitor | Vero 76 | 0.9 µM |  | inhibition | 0% |
| FTVEKGIYQTSNFRV | human CD4 T cells | AIM | peptide |  |  | responding donors | 9% |
| C[C@@]12C[C@@]3(O)O[C@@H](O1)[C@]1(COC(=O)c4ccc(O)cc4)[C@H]3C[C@@]12O[C@@H]1O[C@H](COC(=O)c2ccccc2)[C@@H](O)[C@H](O)[C@H]1O | Replicase polyprotein 1ab, main protease (rep, Severe acute respiratory syndrome coronavirus 2, UniProt P0DTD1) | reporter gene (Gaussia luciferase), inhibitor |  | 20 µM |  | inhibition | 1.32% |

Excerpt of the above:
| Molecule | tested on | assay | test system | conditions | scale | measurement | value |
| --- | --- | --- | --- | --- | --- | --- | --- |
| Nc1ncnc2c([C@@H]3N[C@H](CO)[C@@H](O)[C@H]3O)c[nH]c12 | Japanese encephalitis virus | viral replication, inhibitor | Vero 76 | 0.9 µM |  | inhibition | 0% |
